Measured values from different studies.
Numbered parts are unrelated; each lists some results of a single study. Changes are numbered by the printed parent chain.

Study 1
Target: Prothrombin, mature alpha-thrombin (F2, Homo sapiens, UniProt P00734)
Technique: aptamer microarray, sandwich
Molecule type: DNA with 2'F-ANA
Sample: in vitro
Concentration: 200 nM
Notes: whole 15-mer aptamer, many near background
Added: Cy3 exosite-II aptamer, 400 nM
Reading: higher = stronger binding
Sequence: GGTTGGTGTGGTTGG
| Modification | mean fluorescence intensity [a.u.] |
| --- | --- |
| 2'F-ANA at 5 6 7 11 12 13 14 | 43.7 |
| 2'F-ANA at 1 2 3 4 6 8 9 11 13 | 117 |
| 2'F-ANA at 2 3 4 5 7 9 10 12 13 14 | 57.1 |
| 2'F-ANA at 1 2 5 8 10 15 | 46 |
| 2'F-ANA at 4 5 6 7 11 12 | 98.9 |
| 2'F-ANA at 7 8 9 11 15 | 516 |
| 2'F-ANA at 4 6 7 10 12 14 15 | 59.3 |
| 2'F-ANA at 2 3 4 5 6 8 9 10 11 14 | 133 |
| 2'F-ANA at 2 3 10 13 15 | 340 |
| 2'F-ANA at 2 5 10 12 13 14 15 | 52.5 |
| 2'F-ANA at 1 2 4 6 7 9 11 12 15 | 155 |
| 2'F-ANA at 2 3 7 10 15 | 461 |
| 2'F-ANA at 2 3 4 5 9 10 14 15 | 48 |

Study 2
Target: CCND1, cyclin fold, Cln2 fusion (human)
Technique: yeast growth competition, sequencing
Sample: yeast
Notes: strong parent motif
Baseline: not given
Reading: higher = stronger binding
Parent: E2F1 docking peptide (human); PPVKRRLDFETDH; partner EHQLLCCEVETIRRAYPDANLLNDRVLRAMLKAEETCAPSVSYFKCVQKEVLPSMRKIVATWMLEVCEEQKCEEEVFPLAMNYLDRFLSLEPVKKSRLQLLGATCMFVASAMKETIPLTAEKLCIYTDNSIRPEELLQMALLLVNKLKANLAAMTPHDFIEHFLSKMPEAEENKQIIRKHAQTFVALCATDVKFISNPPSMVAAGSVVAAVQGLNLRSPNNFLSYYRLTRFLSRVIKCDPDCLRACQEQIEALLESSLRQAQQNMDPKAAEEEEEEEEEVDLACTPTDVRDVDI
| Change | normalised enrichment score |
| --- | --- |
| R6F | 1.33 |
| F9Q | 0.455 |
| P2K | 2.14 |
| L7M | 0.566 |
| F9Y | 0.168 |
| K4N | 2.42 |
| P2E | 1.32 |
| R6Y | 1.43 |
| V3K | 0.0546 |
| T11K | 2.15 |
| R6Q | 1.56 |
| L7F | 0.0546 |
| K4R | 3.96 |
| R6P | 0.391 |

Study 3
Target: Histone acetyltransferase KAT6A, both winged helices, GST fusion (KAT6A, Homo sapiens, UniProt Q92794, residues 1-181)
Technique: protein binding microarray
Molecule type: double-stranded DNA, one strand shown
Sample: in vitro
Concentration: not given
Notes: 8-mer, flanks averaged, mean of 2 arrays, mostly near background
Baseline: not given
Reading: higher = stronger binding
Residues (chain): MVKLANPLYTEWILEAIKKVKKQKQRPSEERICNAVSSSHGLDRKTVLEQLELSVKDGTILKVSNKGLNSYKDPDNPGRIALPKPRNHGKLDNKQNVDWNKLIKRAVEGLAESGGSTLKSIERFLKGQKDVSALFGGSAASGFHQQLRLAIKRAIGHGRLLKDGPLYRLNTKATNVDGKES
| Sequence | E-score |
| --- | --- |
| ATTGCGGA | 0.102 |
| CAGGCGGC | 0.213 |
| ACACGACC | 0.00229 |
| ATAGCCAA | -0.139 |
| GGGCAAAA | 0.0845 |
| AGTTGCCA | -0.0934 |
| AGAGCCTG | -0.174 |
| CTCTAGAG | 0.0309 |
| AAGGGAAG | -0.146 |
| CGCTAAGA | 0.164 |
| CAAAAGCA | -0.115 |
| AACCCTAG | -0.184 |

Further values, each from its own experiment
| Substance | target | assay | system | setting | how to read | measurement | result |
| --- | --- | --- | --- | --- | --- | --- | --- |
| PhoQ, residues 284 288 289 292 302 303 TNSAEL | PhoP, residues 12 14 15 18 19 SGWQI (Escherichia coli, UniProt P23836) | Sort-seq, measured: YFP reporter | E. coli | PhoQ-PhoP variant library, added: 10 µM Mg2+ | baseline: high Mg2+ state, higher = stronger signaling | fold induction | 1.85 |

A few entries again (study 1):
| Modification | mean fluorescence intensity [a.u.] |
| --- | --- |
| 2'F-ANA at 4 5 6 7 11 12 | 98.9 |
| 2'F-ANA at 7 8 9 11 15 | 516 |
| 2'F-ANA at 4 6 7 10 12 14 15 | 59.3 |
